Experimental data of several laboratories.
Numbered parts are unrelated; each lists some results of a single study. Substitutions count along the parent as printed.

Set 1 — target: CEBPE, bZIP domain (human); technique: DHFR protein complementation; sample: yeast; reference: wild-type JUN-FOS pair; direction: higher = stronger binding
Setting: single substitutions, most at no-binding floor
Starting sequence: JUN, bZIP domain (human); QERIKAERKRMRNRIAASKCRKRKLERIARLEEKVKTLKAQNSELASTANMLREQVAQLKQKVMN; partner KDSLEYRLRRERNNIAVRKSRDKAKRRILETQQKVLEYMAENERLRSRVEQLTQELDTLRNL
Variant	binding fitness
E54I	-1.21 natural log
L31W	-1.33 natural log
K36R	-0.98 natural log
N42Y	-1.44 natural log
R30G	-1.17 natural log

Set 2 — technique: universal PBM; molecule type: double-stranded DNA, one strand shown; sample: in vitro; tested at: not given; direction: higher = stronger binding
Target: Sal-like protein 4, full length isoform B (SALL4, Homo sapiens, UniProt Q9UJQ4-2, residues 1-616)
Setting: 8-mer, flanks averaged, mean of replicates
Residues (chain): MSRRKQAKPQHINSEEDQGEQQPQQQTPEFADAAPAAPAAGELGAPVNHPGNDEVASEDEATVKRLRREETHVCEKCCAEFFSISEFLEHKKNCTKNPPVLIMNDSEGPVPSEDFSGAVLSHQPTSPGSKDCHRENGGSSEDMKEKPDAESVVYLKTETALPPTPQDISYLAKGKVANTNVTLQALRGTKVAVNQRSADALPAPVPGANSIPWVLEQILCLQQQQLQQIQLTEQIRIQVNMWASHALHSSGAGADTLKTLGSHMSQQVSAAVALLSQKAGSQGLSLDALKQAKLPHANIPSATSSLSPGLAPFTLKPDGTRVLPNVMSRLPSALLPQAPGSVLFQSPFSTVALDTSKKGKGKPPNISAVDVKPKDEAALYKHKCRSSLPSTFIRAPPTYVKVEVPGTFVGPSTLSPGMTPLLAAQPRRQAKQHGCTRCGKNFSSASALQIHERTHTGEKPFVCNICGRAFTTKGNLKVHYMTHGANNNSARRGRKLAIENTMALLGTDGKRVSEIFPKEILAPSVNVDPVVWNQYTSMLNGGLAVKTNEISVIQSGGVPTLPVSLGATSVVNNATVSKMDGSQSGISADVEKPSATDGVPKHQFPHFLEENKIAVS
Sequence	E-score
AGGAATGG	-0.0411
CGGAGGCC	-0.415
GGGGCCAC	-0.292
TAAGACCA	0.0511
AAGTCGCC	-0.305
AGGTCAAG	-0.146
AGCAAGAG	-0.0716

Set 3 — target: CCND2, cyclin fold, Cln2 fusion (human); technique: yeast growth competition, sequencing; sample: yeast; setting: weak parent motif; reference: not given; direction: higher = stronger binding
Starting sequence: MICAL3 docking peptide (human); LQLRRQLSFSEDS; partner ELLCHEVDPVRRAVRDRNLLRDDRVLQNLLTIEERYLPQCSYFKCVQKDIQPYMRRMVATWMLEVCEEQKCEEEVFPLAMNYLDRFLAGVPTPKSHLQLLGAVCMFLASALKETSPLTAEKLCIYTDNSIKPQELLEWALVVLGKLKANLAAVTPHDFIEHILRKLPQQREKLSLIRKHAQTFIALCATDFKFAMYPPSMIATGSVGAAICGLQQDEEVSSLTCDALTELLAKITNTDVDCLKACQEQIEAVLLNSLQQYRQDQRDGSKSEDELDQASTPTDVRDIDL
Variant	normalised enrichment score
F9W	0.326
F9S	0.118
F9Q	-0.0437
E11C	0.159
Q2Y	0.175
R4I	0.317
S10A	0.288

Mixed results
Substance	target	test	system	conditions	how to read	quantity	value
PhoQ, residues 284 288 289 292 302 303 TGYLSA	PhoP, residues 12 14 15 18 19 AWHSL (Escherichia coli, UniProt P23836)	Sort-seq, item: YFP reporter	E. coli	PhoQ-PhoP variant library, with: 10 µM Mg2+	reference: high Mg2+ state, higher = stronger signaling	fold induction	3.01

A few entries again (set 1):
Variant	binding fitness
E54I	-1.21 natural log
N42Y	-1.44 natural log
